Measured values from different studies.
Numbered parts are unrelated; each lists some results of a single study.

Series 1 — technique: universal PBM; form: double-stranded DNA, one strand shown; matrix: in vitro; concentration: 600 nM; reading: higher = stronger binding; measurement: E-score
Target: Sal-like protein 4, full length isoform A (SALL4, Homo sapiens, UniProt Q9UJQ4, residues 1-1053)
Sequence of UniProt Q9UJQ4 (whole entry, looked up): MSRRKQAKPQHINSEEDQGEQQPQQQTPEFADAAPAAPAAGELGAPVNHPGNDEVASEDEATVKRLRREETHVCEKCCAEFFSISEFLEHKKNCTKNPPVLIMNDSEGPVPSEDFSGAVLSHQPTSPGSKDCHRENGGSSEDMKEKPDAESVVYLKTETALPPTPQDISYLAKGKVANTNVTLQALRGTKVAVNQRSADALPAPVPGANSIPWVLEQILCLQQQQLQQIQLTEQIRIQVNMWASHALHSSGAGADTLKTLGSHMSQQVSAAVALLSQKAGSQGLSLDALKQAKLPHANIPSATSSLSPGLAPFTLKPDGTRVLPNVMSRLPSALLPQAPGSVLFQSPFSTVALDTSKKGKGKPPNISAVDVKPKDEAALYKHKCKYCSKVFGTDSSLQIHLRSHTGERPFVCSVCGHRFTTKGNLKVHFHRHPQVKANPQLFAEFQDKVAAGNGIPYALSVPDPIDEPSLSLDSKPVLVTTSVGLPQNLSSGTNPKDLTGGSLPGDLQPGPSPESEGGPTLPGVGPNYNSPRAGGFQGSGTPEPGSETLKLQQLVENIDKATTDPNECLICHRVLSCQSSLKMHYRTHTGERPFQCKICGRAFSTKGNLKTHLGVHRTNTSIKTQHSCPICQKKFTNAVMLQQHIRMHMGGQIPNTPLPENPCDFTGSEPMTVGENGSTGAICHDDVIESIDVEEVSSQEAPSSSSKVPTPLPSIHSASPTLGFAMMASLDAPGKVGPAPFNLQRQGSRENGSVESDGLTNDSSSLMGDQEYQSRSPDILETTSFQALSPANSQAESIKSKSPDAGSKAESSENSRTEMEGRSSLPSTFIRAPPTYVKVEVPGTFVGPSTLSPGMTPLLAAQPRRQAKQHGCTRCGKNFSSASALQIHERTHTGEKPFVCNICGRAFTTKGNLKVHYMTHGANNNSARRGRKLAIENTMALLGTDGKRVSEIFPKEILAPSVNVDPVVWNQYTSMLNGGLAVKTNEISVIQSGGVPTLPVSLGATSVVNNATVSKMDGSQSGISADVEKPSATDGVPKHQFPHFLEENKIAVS
Setting: 8-mer, flanks averaged, mean of replicates
CAATAAAC: 0.269
ACAACTGT: 0.0158
ATCGGTGC: -0.059
TAAGCCTA: 0.0731
AACCGTTG: 0.029
CCGGAAAA: -0.00222
ACAACGTG: -0.0797
TACACGAA: 0.117
GGATAAAA: 0.234
GCACTCCC: -0.159

Series 2 — technique: Sort-seq; refers to: YFP reporter; matrix: E. coli; setting: PhoQ-PhoP variant library; together with: 10 µM Mg2+; relative to: high Mg2+ state; reading: higher = stronger signaling; measurement: fold induction
Substance: PhoQ, residues 284 288 289 292 302 303 SSLVEF
PhoP, residues 12 14 15 18 19 TQALL (Escherichia coli, UniProt P23836): 8.83
PhoP, residues 12 14 15 18 19 NYFRM (Escherichia coli, UniProt P23836): 4.11
PhoP, residues 12 14 15 18 19 QYFSL (Escherichia coli, UniProt P23836): 12.2

Series 3 — technique: protein binding microarray; form: double-stranded DNA, one strand shown; matrix: in vitro; concentration: not given; relative to: not given; reading: higher = stronger binding; measurement: E-score
Target: Histone acetyltransferase KAT6A, winged helix 2, GST fusion (KAT6A, Homo sapiens, UniProt Q92794, residues 85-181)
Setting: 8-mer, flanks averaged, mean of 2 arrays, mostly near background
Target sequence (chain): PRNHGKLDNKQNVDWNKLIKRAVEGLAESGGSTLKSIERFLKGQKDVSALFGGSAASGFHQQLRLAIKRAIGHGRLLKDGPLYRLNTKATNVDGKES
CGCGACGA: 0.178
AGGTGCCC: 0.0267
AGGTTCTA: -0.107
GCACGCGC: 0.0277
AAAACAAA: 0.101
CGCACTGA: 0.109

Series 4 — technique: protein-binding microarray; form: double-stranded DNA, one strand shown; matrix: in vitro; concentration: 250 nM; setting: 60-bp whole probe; together with: salmon DNA 0.4 mg/ml; relative to: random background probes; reading: higher = stronger binding; measurement: log fluorescence; all sequences stand within: GCCTAGCAC … GTCTTGATTCGCTTGACGCTGCTG
Target: Interferon regulatory factor 7, full length, phosphomimetic (IRF7, Homo sapiens, UniProt Q92985, residues 1-503, S101K/S471D/S472D/S475D/S476D/S477D/S483D/S484D/S487D)
Sequence of UniProt Q92985 (whole entry, unmodified, looked up): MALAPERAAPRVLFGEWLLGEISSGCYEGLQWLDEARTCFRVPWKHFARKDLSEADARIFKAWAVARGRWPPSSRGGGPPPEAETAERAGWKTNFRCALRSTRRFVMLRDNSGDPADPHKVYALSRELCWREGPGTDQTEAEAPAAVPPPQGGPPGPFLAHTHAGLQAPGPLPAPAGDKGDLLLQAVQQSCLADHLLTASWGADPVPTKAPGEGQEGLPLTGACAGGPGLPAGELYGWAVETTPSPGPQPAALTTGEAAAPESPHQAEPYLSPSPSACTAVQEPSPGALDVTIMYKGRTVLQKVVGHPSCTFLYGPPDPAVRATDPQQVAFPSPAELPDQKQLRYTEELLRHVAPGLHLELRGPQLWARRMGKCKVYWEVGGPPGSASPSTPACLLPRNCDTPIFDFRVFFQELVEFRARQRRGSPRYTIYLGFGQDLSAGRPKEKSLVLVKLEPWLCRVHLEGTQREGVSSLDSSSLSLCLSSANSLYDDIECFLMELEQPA
AAACCATTTTTTTTCACTATGTGCTAG: 0.722 z-score
GACGGTTCCGGGTTTCGGGACGTGCTA: 4.45 z-score
GAAGATGTCAAACTCACTCAGTGCTAG: -0.562 z-score
GACGGTATCCTTTTTCTGACGTGCTAG: 0.35 z-score
GACCGTATCGACACTGGGGACGTGCTA: 0.305 z-score
GACGGTATCCTTTTCCTGATGTGCTAG: 0.733 z-score

For quick reference, copied from above (series 4):
AAACCATTTTTTTTCACTATGTGCTAG: 0.722 z-score
GACGGTTCCGGGTTTCGGGACGTGCTA: 4.45 z-score
GAAGATGTCAAACTCACTCAGTGCTAG: -0.562 z-score
GACGGTATCCTTTTTCTGACGTGCTAG: 0.35 z-score
